# Assay results from different studies.
# Each line is one published result; not all experiments were run side by side. “And” joins repeats or separate records; there may be more than shown. ± gives the spread as reported.
Substance,target or system,assay,system,conditions,how to read,measurement,value
HVLVMSATRR,,,"peptide, C57BL/6J mice, male, blood","subcutaneous osmotic pump, 3 mg/kg/day peptide basis, 8 weeks",,mean cell volume,46.2 fL and 45.9 fL and 47.3 fL and 45.6 fL
nonaarginine,PorA peptide pore,"peptide binding, planar bilayer single-channel recording",,"pH 7.4, -40 mV, cis side, 150 mM KCl",,Kd,16.7 ± 2 µM
polymyxin B,,,"mice infected with Acinetobacter baumannii, caecum and colon contents",,,relative abundance of Escherichia-Shigella,0.00641
QAKTFLDKFNHEAEDLFYQ,,circular dichroism,"peptide, water/TFE 1:1 v/v","200 µM, 25 °C",,random coil content,0%
Tetramethylrhodamine biocytin,,,"mouse JIMT1-BR brain metastasis model, brain macrometastases","intravenous, 10 min",baseline: uninvolved brain,increase in mean fluorescence intensity,73.2%
"Ac-LRKLRKRLLRDWLKAFYDKVAEKLKEAF-NH2 (N-acetyl, C-amide)",THP-1 derived macrophages,,peptide,"concentration not given, 2 h pulse, 60 min chase, surface peptide removed by heparin",,peptide retained in cells,40 ± 2.3%
benzalkonium chloride,,,zebrafish larvae,"5 µM, intact compound, not light-degraded",,mortality,~80%
MEASGVNYQNMNKQTT,,circular dichroism,"peptide, water with 5% DMSO","500 µM, 18 °C",,alpha-helix content,21%
insulin human,,refers to: GRIA1 mRNA,"EcoHIV-infected mouse, brain","i.p., dose not given",baseline: PBS,fold change,1.01
"Ac-RRWFWR-NH2 (N-acetyl, C-amide)",,RP-HPLC,peptide,,,retention time,16.6 min
YISPQYYGETWVTTIG,,circular dichroism,"peptide, water with 5% DMSO","500 µM, 18 °C",,alpha-helix content,10%
TLILRLSSKLI,,,"peptide, mouse red blood cells",concentration not given,,minimal haemolytic concentration,inactive
GIGKFIHAVKKWGKTFIGEIAKS-NH2 (C-amide),,RP-HPLC,peptide,,,retention time,18.7 min
Polymyxin B,,,mouse,"intraperitoneal, 40 mg/kg single dose, day 1",,survival,0%
aspterric acid,,hypocotyl length,Arabidopsis thaliana Col-0 seeds,"100 µg/mL, seed germination",baseline: water control,inhibition,99.6%
hexaarginine,PorA peptide pore,"peptide binding, planar bilayer single-channel recording",,"pH 7.4, +10 mV, trans side, 150 mM KCl",,Kd,4.9 ± 0.5 µM
DPDPE,,RP-HPLC,HALO Peptide ES-C18 column,"25 µM, formic acid/acetonitrile, 10 min gradient",,retention time,4.24 min
GWTLNSAGYLLGPHAVDNHRSFNDKHGFT-NH2 (C-amide),,,"peptide, healthy male mice","ip, 3 µM",,colon length,9 cm and 8.2 cm and 9.1 cm and 8.5 cm
capreomycin sulfate,,,"guinea pig, serum","insufflation, dose not given, dry powder combination single dose",,Cmax,2690 ng/mL
glucagon,,ELISA,"human, type 1 diabetes, femoral artery plasma","intravenous infusion, 0.12 ng/kg/min, 160 to 180 min",,plasma concentration,0.0496 ± 0.0043 ng/mL
ILGTILGLLKGLOH,,,"peptide, mouse red blood cells",concentration not given,,minimal haemolytic concentration,inactive
FTMSPPLQMPSKNY,,circular dichroism,"peptide, water with 5% DMSO","500 µM, 18 °C",,random coil content,96%
SLIRKTSILLL,,,"peptide, mouse red blood cells",concentration not given,,minimal haemolytic concentration,inactive
heparin sodium,,,healthy Chinese adult volunteers,"continuous intravenous infusion, 8 IU/kg/h, 5 days",,elevated creatine phosphokinase,25%

# A few entries again:
Substance,target or system,assay,system,conditions,how to read,measurement,value
polymyxin B,,,"mice infected with Acinetobacter baumannii, caecum and colon contents",,,relative abundance of Escherichia-Shigella,0.00641
GWTLNSAGYLLGPHAVDNHRSFNDKHGFT-NH2 (C-amide),,,"peptide, healthy male mice","ip, 3 µM",,colon length,9 cm and 8.2 cm and 9.1 cm and 8.5 cm
"Ac-LRKLRKRLLRDWLKAFYDKVAEKLKEAF-NH2 (N-acetyl, C-amide)",THP-1 derived macrophages,,peptide,"concentration not given, 2 h pulse, 60 min chase, surface peptide removed by heparin",,peptide retained in cells,40 ± 2.3%
